Assay results from different studies.
Protocols differ between the studies behind these lines. Values joined by “and” are separate records of one study, mostly repeats; a detail may differ. ± gives the spread as reported.
UniProt Q13976, sequence (whole entry, looked up): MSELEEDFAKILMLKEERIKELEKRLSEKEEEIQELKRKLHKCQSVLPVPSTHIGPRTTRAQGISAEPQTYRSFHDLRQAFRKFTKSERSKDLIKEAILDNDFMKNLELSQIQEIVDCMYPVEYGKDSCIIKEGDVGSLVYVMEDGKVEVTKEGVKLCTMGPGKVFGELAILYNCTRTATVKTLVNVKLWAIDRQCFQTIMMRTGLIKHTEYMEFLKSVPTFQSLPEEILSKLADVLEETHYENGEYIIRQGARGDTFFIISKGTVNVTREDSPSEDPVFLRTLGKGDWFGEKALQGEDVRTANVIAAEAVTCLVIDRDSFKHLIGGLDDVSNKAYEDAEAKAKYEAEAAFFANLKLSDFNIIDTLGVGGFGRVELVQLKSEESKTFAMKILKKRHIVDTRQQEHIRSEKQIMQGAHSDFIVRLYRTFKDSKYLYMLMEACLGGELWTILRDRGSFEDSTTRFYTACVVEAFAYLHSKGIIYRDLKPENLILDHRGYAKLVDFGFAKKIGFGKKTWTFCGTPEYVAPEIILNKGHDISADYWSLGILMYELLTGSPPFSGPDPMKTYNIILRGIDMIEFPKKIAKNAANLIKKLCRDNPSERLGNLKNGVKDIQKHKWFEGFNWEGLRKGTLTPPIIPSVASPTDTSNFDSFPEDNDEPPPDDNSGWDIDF

`C/C(=N\OCCCN1CCCCC1)c1ccc(C(F)(F)F)cc1` gave an AUC(0-t) of 3.29 ± 0.988 µg·h/mL (mouse, plasma; oral, 50 mg/kg twice daily, day 7).
`CC(=O)NCCCC[C@@H]1NC(=O)[C@H](Cc2c[nH]c3c(C)cccc23)NC(=O)[C@H]([C@@H](C)O)NC(=O)[C@H](CC(N)=O)NC(=O)[C@@H](NC(C)=O)C(C)(C)SSC(C)(C)[C@@H](C(=O)N[C@@H](Cc2ccc(OCCN)cc2)C(=O)N[C@@H](Cc2ccc3ccccc3c2)C(=O)NC2(C(=O)N[C@@H](CCC(=O)O)C(=O)N[C@@H](CC(N)=O)C(=O)N[C@@H](Cc3cccnc3)C(=O)N(C)CC(N)=O)CCOCC2)NC1=O` has a CL/F of 6530 L/h (human, plasma; oral, 1000 mg, single dose, healthy volunteers).
Under “maximum tolerated dose”, `OCC1OC(n2cnc3c(NCc4ccc(Br)s4)ncnc32)C(O)C1O` (stereo not shown) is recorded as no less than 150 mg/kg/day (Sprague-Dawley rats, both sexes; oral, repeated dosing).
`C[C@H](NCc1ccc(-c2ccc(C(F)(F)F)cc2)cc1)C(N)=O` has a compound remaining of 61% (metabolic stability; dog, liver microsomes; 1 µM, 30 min, pH 7.4).
For `CC[C@H](C)[C@H](NC(=O)[C@H](CCCCN)NC(=O)CNC(=O)[C@H](CC(C)C)NC(=O)[C@H](Cc1ccccc1)NC(=O)[C@H](CCCCN)NC(=O)[C@H](CO)NC(=O)[C@H](Cc1ccccc1)NC(=O)[C@H](Cc1c[nH]c2ccccc12)NC(=O)[C@H](CCC(N)=O)NC(=O)[C@@H](NC(=O)[C@H](Cc1ccccc1)NC(=O)CCCCCNC(=O)CN1CCN(CC(=O)O)CCN(CC(=O)O)CCN(CC(=O)O)CC1)C(C)C)C(=O)N[C@@H](CCC(=O)O)C(=O)N1CCC[C@H]1C(=O)N[C@@H](CC(=O)O)C(=O)N[C@H](C(=O)N[C@@H](CO)C(=O)N[C@@H](CCC(N)=O)C(=O)N[C@H](C(=O)N[C@@H](CCC(N)=O)C(=O)N[C@@H](CC(=O)O)C(=O)N1CCC[C@H]1C(=O)N[C@@H](CC(N)=O)C(=O)N[C@@H](CC(=O)O)C(=O)N[C@@H](CCC(N)=O)C(=O)N[C@@H](Cc1ccc(O)cc1)C(=O)N[C@@H](CCC(=O)O)C(=O)N1CCC[C@H]1C(=O)N[C@@H](Cc1ccccc1)C(=O)O)C(C)C)C(C)C` [copper-64 labelled], the tissue uptake was 2.92 ± 0.6 %ID/g (C57BL/6 mice, male, tumour-free, spleen; 1 h).
For `CC(CCC(=O)NCC(=O)O)C1CCC2C3C(O)CC4CC(OC5OC(C(=O)O)C(O)C(O)C5O)CCC4(C)C3CCC12C` (stereo not shown), the plasma concentration was 4.44 ng/mL (human women; dose not given, SLCO1B1 *14/*14).
For `CC(C)(C)C(=O)OCOP(=O)(OCOC(=O)C(C)(C)C)C1CCCN(O)C1=O` (stereo not shown), the log GI50 was -6.5 log M (Hs-578T).
For `CS(C)(=O)=Nc1ccc(-c2ccc(-c3nc4cc(O[C@@H]5CO[C@H]6[C@@H]5OC[C@H]6O)[nH]c4cc3F)cc2)cc1`, the inhibition was -17% (cGMP-dependent protein kinase 1, isoform beta (PRKG1, Homo sapiens, UniProt Q13976); kinase activity; 10 µM).
`CC(C)C[C@H](NC(=O)[C@H](C)NC(=O)[C@H](CCCCN)NC(=O)CCNC(=S)Nc1ccc2c(c1)C(=O)OC21c2ccc(O)cc2Oc2cc(O)ccc21)C(=O)N[C@@]1(C)CCCC=CCCC[C@@](C)(C(=O)N[C@H](C(=O)NCC(=O)N[C@@H](CC(=O)O)C(=O)NCC(=O)N[C@H](C(=O)N[C@@H](CCC(N)=O)C(=O)N[C@@H](CCCNC(=N)N)C(=O)N[C@@H](CC(N)=O)C(=O)N[C@@H](Cc2c[nH]cn2)C(=O)N[C@@H](CCC(=O)O)C(=O)N[C@H](C(=O)N[C@@H](C)C(=O)N[C@@H](Cc2ccccc2)C(N)=O)[C@@H](C)O)C(C)C)C(C)C)NC(=O)[C@H](CCCNC(=N)N)NC(=O)[C@H](CC(C)C)NC(=O)[C@H]([C@@H](C)O)NC1=O` gave a α-helicity of 100% (circular dichroism; potassium phosphate buffer; 20 µM, pH 7.5).
For `CCOc1ccccc1-n1c(CN2CCNCC2)nc2ccccc2c1=O`, the oral bioavailability was 27.6% (C57BL/6 mouse, male, plasma; oral, 6 mg/kg).
`CN1Cc2cc(Cl)ccc2-n2c(nnc2C2CCN(c3cccc(F)n3)CC2)C1` has a concentration of 2.68 ng/mL (mass spectrometry; male Sprague-Dawley rat, brain; intravenous, 0.03 mg/kg, 30 min).
`N#[11C]c1ccc(-c2csc(NN=C3CCCC3)n2)cc1` gave a radioactivity uptake of 4.78 ± 0.16 %ID/g (C57BL/6 mice, male, lung; intravenous, 3 MBq, 15 min).
For `Cc1nc2cccc(OCC(C)(C)C(=O)NC(C)C)c2c(N)c1C(=O)[O-].[Na+]`, “revertant colonies per plate” read 10 ± 2 (Salmonella typhimurium; TA1535; 5.0 mg per plate, without S9, plate incorporation).
The body weight of `O=C1NC2(CC2)COc2ncc(F)cc2[C@H]2COCCN2c2ccn3ncc1c3n2` is reported as 424 ± 31.5 g (Sprague-Dawley rat, male; oral, 20 mg/kg/day, end of treatment, 4-week repeated-dose toxicity).
The relative abundance of `COc1ccccc1-c1n[nH]c2nc(NC3CCN(C(=O)Cc4ccc(F)cc4F)CC3)ncc12` is reported as 1.07 (bead binding, competition bead pull-down, item: LINJ.35.3900; Leishmania donovani extract; 10 µM; baseline: vehicle).
With `CSCC[C@H](N)C(=O)N[C@@H](C)C(=O)N[C@@H](CCCNC(=N)N)C(=O)N[C@@H](CCCNC(=N)N)C(=O)N[C@@H](CC(=O)O)C(=O)N[C@@H](CCCCN)C(=O)N[C@H](C(=O)N[C@@H](CC(=O)O)C(=O)N[C@@H](Cc1ccccc1)C(=O)N[C@@H](C)C(=O)N[C@@H](CCCNC(=N)N)C(=O)N[C@@H](CCCNC(=N)N)C(=O)N[C@@H](CCCNC(=N)N)C(=O)N[C@@H](CCCNC(=N)N)C(=O)NCCCCCC(=O)NCCCCC(NC(=O)CCCCCNC(=O)[C@H](CCCNC(=N)N)NC(=O)[C@H](CCCNC(=N)N)NC(=O)[C@H](CCCNC(=N)N)NC(=O)[C@H](CCCNC(=N)N)NC(=O)[C@H](C)NC(=O)[C@H](Cc1ccccc1)NC(=O)[C@H](CC(=O)O)NC(=O)[C@@H](NC(=O)[C@H](CCCCN)NC(=O)[C@H](CC(=O)O)NC(=O)[C@H](CCCNC(=N)N)NC(=O)[C@H](CCCNC(=N)N)NC(=O)[C@H](C)NC(=O)[C@@H](N)CCSC)[C@@H](C)O)C(=O)NCCCCC(NC(=O)C(CCCCNC(=O)CCCCCNC(=O)[C@H](CCCNC(=N)N)NC(=O)[C@H](CCCNC(=N)N)NC(=O)[C@H](CCCNC(=N)N)NC(=O)[C@H](CCCNC(=N)N)NC(=O)[C@H](C)NC(=O)[C@H](Cc1ccccc1)NC(=O)[C@H](CC(=O)O)NC(=O)[C@@H](NC(=O)[C@H](CCCCN)NC(=O)[C@H](CC(=O)O)NC(=O)[C@H](CCCNC(=N)N)NC(=O)[C@H](CCCNC(=N)N)NC(=O)[C@H](C)NC(=O)[C@@H](N)CCSC)[C@@H](C)O)NC(=O)CCCCCNC(=O)[C@H](CCCNC(=N)N)NC(=O)[C@H](CCCNC(=N)N)NC(=O)[C@H](CCCNC(=N)N)NC(=O)[C@H](CCCNC(=N)N)NC(=O)[C@H](C)NC(=O)[C@H](Cc1ccccc1)NC(=O)[C@H](CC(=O)O)NC(=O)[C@@H](NC(=O)[C@H](CCCCN)NC(=O)[C@H](CC(=O)O)NC(=O)[C@H](CCCNC(=N)N)NC(=O)[C@H](CCCNC(=N)N)NC(=O)[C@H](C)NC(=O)[C@@H](N)CCSC)[C@@H](C)O)C(N)=O)[C@@H](C)O` (stereo partly shown) the tissue distribution was 11.5% (C57BL/6 mouse female, small intestine; 3 h; baseline: total dose).
`CCCCC[C@@H]1NC(=O)[C@@H](C)N(C)C(=O)[C@H](CCCCC)N(C)C(=O)[C@@H](C)N(C)C(=O)[C@H](CCCCC)N(C)C(=O)[C@@H](C)N(C)C(=O)[C@H](CCCCC)N(C)C(=O)[C@@H](C)N(C)C1=O` gave a log Papp of 4.68 ×10⁻⁶ cm/s (PAMPA; 500 µM, pH 7.4).
`COc1ccccc1-c1n[nH]c2nc(N[C@H]3CC[C@H](NS(=O)(=O)CC(C)C)CC3)ncc12` gave a relative abundance of 0.97 (bead binding, competition bead pull-down, item: LINJ.21.1330; Leishmania donovani extract; 10 µM; baseline: vehicle).
`Cc1ccc(NS(=O)(=O)c2c(C(=O)N3CCCCCC3)c(C)n(C)c2C)c(Cl)c1` gave a viability of 96.2% and 102% (CV-1; African green monkey cells; 11.11 µM, 60 (unit not given)).

Repeated from above:
The relative abundance of `COc1ccccc1-c1n[nH]c2nc(NC3CCN(C(=O)Cc4ccc(F)cc4F)CC3)ncc12` is reported as 1.07 (bead binding, competition bead pull-down, item: LINJ.35.3900; Leishmania donovani extract; 10 µM; baseline: vehicle).
Under “maximum tolerated dose”, `OCC1OC(n2cnc3c(NCc4ccc(Br)s4)ncnc32)C(O)C1O` (stereo not shown) is recorded as no less than 150 mg/kg/day (Sprague-Dawley rats, both sexes; oral, repeated dosing).
